Assay results from different studies.
Compare with care: the assays were run in different laboratories.

Structure (SMILES) | system | conditions | quantity | result
CC[C@H](C)[C@H](NC(=O)[C@H](Cc1ccccc1)NC(=O)[C@H](CCC(=O)O)NC(=O)[C@H](CCCCNC(=O)COCCOCCNC(=O)COCCOCCNC(=O)CC[C@H](NC(=O)CCCCCCCCCCCCCCCCC(=O)O)C(=O)O)NC(=O)[C@H](C)NC(=O)[C@H](C)NC(=O)[C@H](CCC(N)=O)NC(=O)CNC(=O)[C@H](CCC(=O)O)NC(=O)[C@H](CC(C)C)NC(=O)[C@H](Cc1ccc(O)cc1)NC(=O)[C@H](CO)NC(=O)[C@H](CO)NC(=O)[C@@H](NC(=O)[C@H](CC(=O)O)NC(=O)[C@H](CO)NC(=O)[C@@H](NC(=O)[C@H](Cc1ccccc1)NC(=O)[C@@H](NC(=O)CNC(=O)[C@H](CCC(=O)O)NC(=O)C(C)(C)NC(=O)[C@@H](N)Cc1cnc[nH]1)[C@@H](C)O)[C@@H](C)O)C(C)C)C(=O)N[C@@H](C)C(=O)N[C@@H](Cc1c[nH]c2ccccc12)C(=O)N[C@@H](CC(C)C)C(=O)N[C@H](C(=O)N[C@@H](CCCNC(=N)N)C(=O)NCC(=O)N[C@@H](CCCNC(=N)N)C(=O)NCC(=O)O)C(C)C | human | oral, fasting 30 min post-dose, water up to 120 mL | oral bioavailability | 0.795%
CNC(=O)c1cc(Cl)c(OC(C)(C)C(=O)O)cc1OC[C@@H](O)CN1CCC2(CC1)Cc1cc(Cl)ccc1O2 | human | oral, single dose | oral bioavailability | 1.5%
COc1cc(Nc2ncc(F)c(Nc3ccc4c(n3)NC(=O)C(C)(C)O4)n2)cc(OC)c1OC | human | oral | oral clearance | 12 L/h
OCc1cc(C(O)CNCCCCCCOCCCCc2ccccc2)ccc1O (stereo not drawn) | human | oral | oral bioavailability | 12%
CO[C@]1(C(=O)N[C@@H](C)c2ccc(-n3cc(F)cn3)nc2)CC[C@H](c2nc(C)cc(Nc3cc(C)[nH]n3)n2)CC1 | human, fasted, plasma | 200 mg | oral bioavailability | 40 to 50%
COc1cc(Nc2ncc3c(n2)-c2ccc(Cl)cc2C(c2c(F)cccc2OC)=NC3)ccc1C(=O)O | human patients, plasma | oral, 40 mg, cycle 1 day 1, with: pembrolizumab | oral clearance (CL/F) | 8.9 L/h
O=C(NO)c1ccc(CN(c2cnccn2)c2cnccn2)cc1 | human patients, phase I | oral | oral bioavailability | 15 to 50%
COC[C@H]1C[C@@H](c2ncc(-c3ccc4c(c3)COc3cc5c(ccc6nc([C@@H]7CC[C@H](C)N7C(=O)[C@@H](NC(=O)OC)C(C)C)[nH]c65)cc3-4)[nH]2)N(C(=O)[C@H](NC(=O)OC)c2ccccc2)C1 | human, plasma | oral, 150 mg | oral clearance | 32 L/h
C=CC(=O)Nc1cc(Nc2nccc(-c3cn(C)c4ccccc34)n2)c(OC)cc1N(C)CCN(C)C | human patients, plasma | oral, arithmetic mean | oral clearance | 16.4 L/h
